Measurements collected from several papers.
Protocols differ between the studies behind these lines. ± gives the spread as reported.

COc1cc(CNC(=O)C[C@H](C)CCC=C(C)C)ccc1OCc1cn(-c2ccc([N+](=O)[O-])cc2)nn1 — growth percent (NCI-H522; SRB; 10 µM, 48 h): 58.9%
Cc1nc(Nc2ncc(C(=O)Nc3c(C)cccc3Cl)s2)cc(N2CCN(C(=O)CN)CC2)n1 — onset of apoptosis (KU812; flow cytometry; 20 nM): 3 h
NS(=O)(=O)c1ccc(-n2cc(Cn3c(=O)c(Cc4ccccc4)nc4ccccc43)nn2)cc1 — mRNA level (HCT-116; qRT-PCR, item: HIF-1α; concentration not given, 72 h; reference: untreated): 0.31 ± 0.002 fold
COc1cc(O)c(Cl)cc1/C=C/C(=O)c1ccc(C(F)(F)F)cc1 — CD86 expression (mouse bone marrow macrophages; flow cytometry; 10 and 20 µM, with: LPS): decreased
C=CC(OC(C)=O)c1ccc(OC(C)=O)c(OC)c1 (stereo not drawn) — integrin beta1 decrease (MDA-MB-231; Western blot; concentration not given, 24 h): 37.1%
CC(C)Cc1ccc(C(C)C(=O)[O][Pt]([NH2])([NH2])([Cl])([Cl])[O]C(=O)CCCc2ccccc2)cc1 (stereo not drawn) — IC50 fold lower (six human cancer lines; cytotoxicity, MTT; reference: cisplatin): ~10 fold
C[C@H](N)C(=O)N[C@@H](Cc1c[nH]c2ccccc12)C(=O)N[C@@H](CCC(N)=O)C(=O)N[C@@H](Cc1c[nH]c2ccccc12)C(=O)N[C@@H](CCCNC(=N)N)C(=O)N[C@@H](Cc1c[nH]c2ccccc12)C(=O)N[C@@H](CCC(N)=O)C(=O)N[C@@H](Cc1c[nH]c2ccccc12)C(=O)N[C@@H](CCCNC(=N)N)C(N)=O — viability (young human fibroblasts primary; MTT; concentration not given, 2 h, 37 °C, 5% FBS; reference: untreated cells): 99 ± 2%
COc1cc(CNC(=O)C[C@H](C)CCC=C(C)C)ccc1OCc1cn(-c2ccccc2[N+](=O)[O-])nn1 — growth percent (UO-31; SRB; 10 µM, 48 h): 36.5%
CC(=O)N1CCC[C@H]1C(=O)N[C@@H](CC/C=C/C(=O)N(C)C)C(=O)N[C@@H](CCNC(=O)CCCCCN1C(=CC=CC=CC2=[N+](C)c3ccc(S(=O)(=O)[O-])cc3C2(C)C)C(C)(C)c2cc(S(=O)(=O)O)ccc21)C(=O)N1CCC[C@H]1C(=O)N[C@@H](Cc1ccccc1)C(N)=O — Pearson colocalization coefficient (NRK cells; item: Rab7; 90 min, with: α2-macroglobulin): 0.03
O=C(CSc1nc2ccccc2s1)Nc1nonc1[N+](=O)[O-] — GI50 (Ramos; cell viability, CellTiter-Glo): ~7.6 µM
COc1ccc(NC(=O)COc2ccc(/C=C/C(C)=N/O)cc2OC)cc1 — ROS positive cells (SH-SY5Y; DCFDA flow cytometry; 5 µM, with: amyloid beta 10 µM): 53.6%
CSc1nc(Nc2ccc(/C(C)=N/NC(=O)c3ccc([N+](=O)[O-])cc3[N+](=O)[O-])cc2)c(C#N)c(-c2ccccc2)n1 — early apoptotic cells (HCT-116; annexin V-FITC/PI flow cytometry; 1.14 µM, 24 h): 5.47%
COc1cc(CNC(=O)C[C@H](C)CCC=C(C)C)ccc1OCc1cn(-c2ccc(F)cc2)nn1 — growth percent (COLO 205; SRB; 10 µM, 48 h): 97.2%
COc1ccc(NC(=O)N/N=C2\CC3(CCN(C)CC3)Oc3ccccc32)cc1 — necrotic cells (HCT-116; annexin V-FITC/PI; concentration not given, 24 h): 3.72%
COc1cc(CNC(=O)C[C@H](C)CCC=C(C)C)ccc1OCc1cn(-c2cccc(Cl)c2)nn1 — growth percent (SK-MEL-28 melanoma cells; SRB; 10 µM, 48 h): 76.6%
COc1ncccc1CN(C(=O)OCc1ccc([N+](=O)[O-])cc1F)[C@H]1C[C@@H]1c1ccccc1 (racemic) — selectivity ratio (THP-1 cells; colony forming unit; reference: EC50 wild type over NTR-expressing): 10 ± 5
O=Cc1ccc(C(F)F)o1 — antisickling activity fold improvement (human sickle cell (SS) red blood cells; 2 mM; reference: 5-HMF): ~2.3 fold
CO[C@H]1O[C@H](COC(c2ccccc2)(c2ccccc2)c2ccccc2)[C@@H](OS(=O)(=O)c2ccccc2)[C@H](OS(=O)(=O)c2ccccc2)[C@H]1OS(=O)(=O)c1ccccc1 — inhibition (Ehrlich; cell growth or viability, MTT; 125 µg/mL, 24 h): 5.45%
COc1ccc([C@@H]2CC(=O)c3c(O)cc(O[C@@H]4O[C@H](CO[C@@H]5O[C@@H](C)[C@H](O)[C@@H](O)[C@H]5O)[C@@H](O)[C@H](O)[C@H]4O)cc3O2)cc1O — cell count (MRC5; trypan blue exclusion; 50 µg/mL, 72 h): 20800 ± 404
O=C1Nc2ccc(Cl)cc2C1=Cc1c(Cl)[nH]c2c1ccc1ccccc12 — TGI (CNS cancer subpanel of NCI-60; 48 h): 5.37 µM
Cc1ccc(C(C)C)cc1.O=C(N=P(c1ccccc1)(c1ccccc1)c1ccccc1)c1ccccn1.[Cl-].[Cl][Ru+] — sub-G0 cells increase (MDA-MB-231 and HCC1806; PI flow cytometry; IC20, 24 h): < 1%
CC1(CO)CCCC2(C)C1CCC1(C)c3cocc3CCC12 (stereo not drawn) — mRNA level (VCaP; inhibitor, qRT-PCR, item: PSA, FKBP5, TMPRSS2; 10 µM, 16 h, androgen-induced transcripts, with: R1881 1 nM): inhibited
C=CC(OC(C)=O)c1cc(OC)c(OC(C)=O)c(OC)c1 (stereo not drawn) — p53 protein level (MDA-MB-231; Western blot; IC50, 24 h; reference: untreated): 2.3 fold
COc1ccc([C@@H]2CC(=O)c3c(O)cc(O[C@@H]4O[C@H](CO[C@@H]5O[C@@H](C)[C@H](O)[C@@H](O)[C@H]5O)[C@@H](O[C@H]5O[C@H](CO)[C@@H](O)[C@H](O)[C@H]5O)[C@H](O)[C@H]4O)cc3O2)cc1O — gap closure (A549; cell migration, scratch; 150 µg/mL, 0 h): 0%
O=Cc1c(O)ccc2ccccc12 — log2 fold change (HUVEC; RNA sequencing, item: POLE2; 75 µM, 24 h; reference: DMSO): -3.14
C[C@H](NC(=O)[C@H](Cc1c[nH]c2ccccc12)NC(=O)[C@@H](N)CCCNC(=N)N)C(=O)N[C@@H](Cc1c[nH]c2ccccc12)C(=O)N[C@@H](CCCNC(=N)N)C(=O)N[C@@H](Cc1c[nH]c2ccccc12)C(=O)N[C@@H](CCC(N)=O)C(=O)N[C@@H](Cc1c[nH]c2ccccc12)C(=O)N[C@@H](CCCNC(=N)N)C(N)=O — viability (MDA-MB-468; MTT; concentration not given, 48 h, 37 °C, 5% FBS; reference: untreated cells): 43 ± 6%
COC1CN([C@H]2CC[C@H]([C@@]3(C)Oc4c(Cl)cc(C(=O)NCc5c(SC)cc(C)[nH]c5=O)c(C)c4O3)CC2)C1 — GI50 (KARPAS-422; cell growth or viability): 0.006 µM
COCC12C(=O)NC3C4(C(OC)CC1O)C1CC5(O)C(OC)C(O)C(OC(C)=O)(C1C5OC(=O)c1ccccc1)C3(O)C(OC)C24 (stereo not drawn) — cells with nuclear export of MK5 (PC-12 expressing EGFP-MK5; 20 µM, with: forskolin 30 min): 20%
FC(F)(F)c1ccnc(-c2cc(C(F)(F)F)ccn2)c1.FC(F)(F)c1ccnc(-c2cc(C(F)(F)F)ccn2)c1.[Cl-].[Cl-].[Ru+2].c1csc(-c2ccc(-c3ccc(-c4ccc(-c5nc6c7cccnc7c7ncccc7c6[nH]5)s4)s3)s2)c1 — phototherapeutic index (SK-MEL-28; cell viability; normoxia, with: red light 633 nm, 100 J/cm2; reference: dark EC50 over light EC50): 37
Cc1nc(C)c(C=[N+]([O-])C(C)(C)C)nc1C — increase in protein level (primary rat midbrain neurons; Western blot, item: MEF2D; 300 µM, with: 20 µM MPP+): 60.5%
Cc1cc(/C=C/c2ccc(O)c(O)c2)[nH]n1 — reduction in micronuclei (CHO; 2.5 µM, 2 h pretreatment, read 18 h post-irradiation, with: 4 Gy radiation; reference: irradiated control): ~25%
Cc1ccc(C(C)C)cc1.[Cl-].[Cl][Ru+].[Ru+].c1ccc(-c2cn(CCCCOc3ccccc3-c3nc4ccccc4s3)nn2)nc1 — selectivity ratio (MCF7; MTT; reference: IC50 HEK293 over IC50 MCF7): 10.9
Cc1cc2c(c(=O)o1)C=C1CCC(C(C)CNCc3ccc(O)cc3)CC1O2 (stereo not drawn) — ROS production (MC65; inhibitor; concentration not given, tetracycline-free): inhibited
CCN(CC)CC(=O)Nc1cccc(-n2cc(-c3ccc4ccc(-c5cn(-c6cccc(NC(=O)CN(CC)CC)c6)nn5)cc4c3)nn2)c1 — HIF-2α protein level (786-0 cells; Western blot; 1 x IC50, 4 h, hypoxia; reference: untreated): 61%
O=C(Cn1c(=O)c(Cc2ccccc2)nc2ccccc21)NN1C(=O)c2ccccc2C1=O — mRNA level (HCT-116; qRT-PCR, item: VEGF; concentration not given, 72 h; reference: untreated): 0.512 ± 0.011 fold
COc1cc(CNC(=O)C[C@H](C)CCC=C(C)C)ccc1OCc1cn(-c2ccccc2Cl)nn1 — growth percent (SK-MEL-28 melanoma cells; SRB; 10 µM, 48 h): 69.8%
COc1cc(/C=C/C(=O)/C=C(O)/C=C/c2ccc(OCC(=O)N3CCOCCOCCOCC3)c(OC)c2)ccc1OCC(=O)N1CCOCCOCCOCC1 — inhibition (SK-LU-1; cell growth or viability, SRB; 5 µM): 6.27%
CC(C)C[C@H](NC(=O)CNC(=O)[C@H](CC(N)=O)NC(=O)[C@@H]1CCCN1C(=O)[C@H](C)NC(=O)[C@H](C)NC(=O)[C@H](C)NC(=O)[C@H](CC(C)C)NC(=O)[C@@H](N)CC(C)C)C(=O)O — aberrant prometaphase/metaphase cells (HeLa-H2B-GFP, QQ transfected; 30 µM): 14%
Cc1c(C)c(C)[c-](C)c1C.[C-]#[O+].[C-]#[O+].[C-]#[O+].[Cl-].[Cl-].[Cl-].[Ir+3].[Re+].c1cnc(-c2ncccn2)nc1 — S-phase cells (MDA-MB-468; PI flow cytometry; 50 µM): 22.1%
COc1cc(CNC(=O)C[C@H](C)CCC=C(C)C)ccc1OCc1cn(-c2ccccc2F)nn1 — growth percent (SNB-75 CNS cancer cells; SRB; 10 µM, 48 h): 10.6%
OC(CN1CCNCC1)Cn1c2ccc(Br)cc2c2cc(Br)ccc21 (stereo not drawn) — caspase-3/7 activity (BAK knockout MEF; apoptosis, inhibitor; 2 µM, 8 h, with: TNFα and cycloheximide): inhibited
O=C(N1CCCC1)n1cc(-c2ccc(-c3ccccc3)cc2)nn1 — SILAC ratio (mouse T-cells; N-terminal labeled proteins, N-terminal enrichment proteomics, item: FBXO7; 1 nM, 6 h; reference: DMSO): 0.88 ± 0.21
C#CCNC(=O)C(CC(C)(C)F)NC(c1ccc(-c2ccc(S(C)(=O)=O)cc2)cc1)C(F)(F)F (stereo not drawn) — effective concentration (human osteoclasts; bone resorption, inhibitor; cortical bone slices; 504 h): ≥ 80 nM
CC(=O)c1c(C)c2cnc(Nc3ccc(N4CCNCC4)cn3)nc2n(C2CCCC2)c1=O — G0/G1 arrested cells (recombinant CHO cell line; PI flow cytometry; concentration not given, 24 h): 96%
CC(=O)OC[C@H]1O[C@@H](Sc2sc(C(=O)c3ccc(Br)cc3)c(N)c2-c2nc3ccccc3s2)[C@H](OC(C)=O)[C@@H](OC(C)=O)[C@H]1OC(C)=O — growth (Malme-3M; SRB; 10 µM, 48 h; reference: untreated): 98%
CC/C=C\C/C=C\C/C=C\C/C=C\C/C=C\C/C=C\CCC(=O)Nc1ccn(C2OC(CO)C(O)C2(F)F)c(=O)n1 (stereo not drawn) — TGI (Malme-3M; NCI60 screen): 22.8 µM
COc1cc(CNC(=O)C[C@H](C)CCC=C(C)C)ccc1OCc1cn(-c2ccc(C#N)cc2)nn1 — growth percent (COLO 205; SRB; 10 µM, 48 h): 95.6%
CC(=O)Oc1ccccc1C(=O)[O][Pt]([NH2])([NH2])([Cl])([Cl])[O]C(=O)CCCc1ccccc1 — IC50 fold lower (six human cancer lines; cytotoxicity, MTT; reference: oxaliplatin): 7 fold
CC(Cc1ccc(Cl)cc1)=C(c1ccc(Cl)cc1)c1ccc(OCCN(C)C)cc1 — GI50 (OVCAR-4; cell growth or viability): 3.52 µM
COc1cc(CNC(=O)C[C@H](C)CCC=C(C)C)ccc1OCc1cn(-c2cccc(C(F)(F)F)c2)nn1 — growth percent (NCI-H522; SRB; 10 µM, 48 h): 83.1%
CC1OC2OC3C4=C(OC3(C)C12O)C(=O)c1c(O)cccc1C4=O (stereo not drawn) — late apoptotic cells (MDA-MB-231; annexin V/PI flow cytometry; 2 µg/mL, 48 h): 10.7%

A few entries again:
COc1ccc(NC(=O)COc2ccc(/C=C/C(C)=N/O)cc2OC)cc1 — ROS positive cells (SH-SY5Y; DCFDA flow cytometry; 5 µM, with: amyloid beta 10 µM): 53.6%
Cc1ccc(C(C)C)cc1.[Cl-].[Cl][Ru+].[Ru+].c1ccc(-c2cn(CCCCOc3ccccc3-c3nc4ccccc4s3)nn2)nc1 — selectivity ratio (MCF7; MTT; reference: IC50 HEK293 over IC50 MCF7): 10.9
COc1cc(CNC(=O)C[C@H](C)CCC=C(C)C)ccc1OCc1cn(-c2ccccc2[N+](=O)[O-])nn1 — growth percent (UO-31; SRB; 10 µM, 48 h): 36.5%
Cc1cc(/C=C/c2ccc(O)c(O)c2)[nH]n1 — reduction in micronuclei (CHO; 2.5 µM, 2 h pretreatment, read 18 h post-irradiation, with: 4 Gy radiation; reference: irradiated control): ~25%
COc1cc(CNC(=O)C[C@H](C)CCC=C(C)C)ccc1OCc1cn(-c2cccc(Cl)c2)nn1 — growth percent (SK-MEL-28 melanoma cells; SRB; 10 µM, 48 h): 76.6%
O=C(CSc1nc2ccccc2s1)Nc1nonc1[N+](=O)[O-] — GI50 (Ramos; cell viability, CellTiter-Glo): ~7.6 µM
COCC12C(=O)NC3C4(C(OC)CC1O)C1CC5(O)C(OC)C(O)C(OC(C)=O)(C1C5OC(=O)c1ccccc1)C3(O)C(OC)C24 (stereo not drawn) — cells with nuclear export of MK5 (PC-12 expressing EGFP-MK5; 20 µM, with: forskolin 30 min): 20%
